# Assay results from different studies.
# Lines come from different studies, so protocols differ. ± marks the error that the study gave.
SMILES,tested on,test,system,conditions,scale,measurement,value
O=C(Cc1cccs1)N[C@@H]1C(=O)N2C(C(=O)O)=C(CSc3cccc[n+]3[O-])CS[C@H]12,Mycobacterium tuberculosis,,,"2.5 µM, replicating, over 5 log10",,time to CFU reduction,72 h
COC(=O)C1=CO[C@@H](OC(C)=O)[C@@H]2C(Cn3cc(CCO[Si](c4ccccc4)(c4ccccc4)C(C)(C)C)nn3)=CC[C@H]12,SK-N-SH,"neuroprotection, MTT",,"0.3 µM, 24 h, with: 250 µM H2O2",,viability,47.8 ± 0.3%
NC[C@@H]1O[C@H](O[C@H]2[C@@H](O)[C@H](O[C@@H]3[C@@H](O)[C@H](N)C[C@H](N)[C@H]3O[C@H]3O[C@H](CO)[C@@H](OCCO)[C@H](O)[C@H]3N)O[C@@H]2CO)[C@H](N)[C@@H](O)[C@@H]1O,Mycobacterium smegmatis ribosome A1408G,"translation, cell-free luciferase synthesis",,,,IC50,1.93 ± 0.38 µg/mL
COC(=O)C1=CO[C@@H](OC(C)=O)[C@@H]2C(Cn3cc(CCCO)nn3)=CC[C@H]12,SK-N-SH,"neuroprotection, MTT",,"0.3 µM, 24 h, with: 250 µM H2O2",,viability,66.6 ± 0.1%
CC(C)CC(O)(CC(C)C)c1cn(C(=O)N2CCCC2)nn1,mouse T-cells,"SILAC proteomics, measured: SERF2",,"1 nM, 6 h, unit not given",relative to: DMSO,protein level,1.05 ± 0.11
COC(=O)C1=CO[C@@H](OC(C)=O)[C@@H]2C(Cn3cc(CCCN4C(=O)c5ccccc5C4=O)nn3)=CC[C@H]12,SK-N-SH,"neuroprotection, MTT",,"0.6 µM, 24 h, with: 250 µM H2O2",,viability,66.1 ± 0.8%
CC1=CC(=O)C[C@@H]2[C@@H](O)C[C@H]3[C@@H]4CC[C@H](O)[C@@]4(C)CC[C@@H]3[C@@]12C,human PBMC,"T-cell proliferation, Alamar Blue",,"48 h, with: phytohemagglutinin-L 7.5 µg/mL",,IC50,4.4 ± 0.01 µg/mL
C[C@H](NC(=O)[C@H](CCC(N)=O)NC(=O)[C@H](C)NC(=O)[C@H](CCCCN)NC(=O)[C@H](CCC(N)=O)NC(=O)[C@H](C)NC(=O)[C@H](CCCCN)NC(=O)[C@H](CCC(N)=O)NC(=O)[C@H](C)NC(=O)[C@H](CCC(N)=O)NC(=O)[C@H](CCCCN)NC(=O)[C@H](C)NC(=O)[C@H](CCC(N)=O)NC(=O)[C@H](CCCCN)NC(=O)[C@H](C)NC(=O)[C@H](CCC(N)=O)NC(=O)[C@H](C)NC(=O)[C@H](CCCCN)NC(=O)[C@H](CCC(N)=O)NC(=O)[C@H](C)NC(=O)[C@H](CCCCN)NC(=O)[C@H](CO)NC(=O)[C@H](Cc1ccc(O)cc1)NC(=O)CNC(=O)CNC(=O)CN)C(=O)N[C@@H](CCCCN)C(=O)N[C@@H](CCC(N)=O)C(=O)N[C@@H](C)C(=O)N[C@@H](CCCCN)C(=O)N[C@@H](CCC(N)=O)C(=O)O,,binding,AA amyloid mouse liver homogenate,"1 h, room temperature",,bound fraction,52%
COCO[C@H]1[C@H](O)[C@@H](N)[C@@H](O[C@H]2[C@H](O[C@@H]3O[C@H](CO)[C@@H](O[C@H]4O[C@@H](CN)[C@@H](O)[C@H](O)[C@H]4N)[C@H]3O)[C@@H](O)[C@H](N)C[C@@H]2N)O[C@@H]1CO,ribosome with mitochondrial A site,"luciferase translation, cell-free translation",,,,IC50,68.2 ± 5.66 µg/mL
CCCCCCCCC(=O)NCc1ccc(O)c(OC)c1,mouse mAb 1-D6,"antibody binding, indirect competitive ELISA",,with: coating antigen 3-OVA,,IC50,> 4 µg/mL
COC(=O)C1=CO[C@@H](OC(C)=O)[C@@H]2C(Cn3cc(CON4C(=O)c5ccccc5C4=O)nn3)=CC[C@H]12,SK-N-SH,"neuroprotection, MTT",,"0.15 µM, 24 h, with: 250 µM H2O2",,viability,71.6 ± 0.1%
CC[C@@H]1CN2CC[C@@]3(O)C(=Nc4cccc(OC)c43)[C@@H]2C[C@@H]1/C(=C\OC)C(=O)OC,rabbit anti-mitragynine polyclonal IgG,competitive indirect ELISA,,concentration not given,relative to: mitragynine,cross-reactivity,19.3%

# Some of these lines once more:
SMILES,tested on,test,system,conditions,scale,measurement,value
COC(=O)C1=CO[C@@H](OC(C)=O)[C@@H]2C(Cn3cc(CON4C(=O)c5ccccc5C4=O)nn3)=CC[C@H]12,SK-N-SH,"neuroprotection, MTT",,"0.15 µM, 24 h, with: 250 µM H2O2",,viability,71.6 ± 0.1%
COC(=O)C1=CO[C@@H](OC(C)=O)[C@@H]2C(Cn3cc(CCO[Si](c4ccccc4)(c4ccccc4)C(C)(C)C)nn3)=CC[C@H]12,SK-N-SH,"neuroprotection, MTT",,"0.3 µM, 24 h, with: 250 µM H2O2",,viability,47.8 ± 0.3%
